# Assay results pooled from the literature.
# Each numbered part is a random draw from the data of one study; scales do not carry over between parts. ± marks the error that the study gave.

# Study 1 — organism: SARS-CoV-2 Wuhan spike VSV pseudovirus; observed: pseudovirus entry; tested at: 10 µM
SMILES,inhibition [%]
Cc1cc(C(=O)N(C)Cc2nc3ccccc3n2C)cc(S(N)(=O)=O)c1C,100
CC(c1cccs1)N(C)C(=O)c1ccc(OC2CCN(Cc3ccccn3)CC2)cc1 (stereo not shown),79
CC(c1cccc(-c2ncc(F)cn2)c1)N(C)C (stereo not shown),100
OC(CN1CCc2ccccc2C1)c1cc(F)ccc1F (stereo not shown),100
O=C(Nc1ccc2c(c1)OCCO2)c1ccccc1-n1ncc(Cl)c(Cl)c1=O,65
CCC(CC)C(=O)N1C[C@@H](CO)[C@H](c2nc(COC)no2)C1,83
COC(=O)c1ccc(CN2CCN(CC3CCCCC3)C(CCO)C2)cc1 (stereo not shown),88
O=C(NCC1CCCN(Cc2nc(-c3ccccc3)cs2)C1)c1cccs1 (stereo not shown),90
CN(c1ccc([N+](=O)[O-])cc1S(=O)(=O)N1CCOCC1)C1CCCCC1,71
CCCS(=O)(=O)N1C[C@@H](COC)[C@H](c2nc(C)no2)C1,83
CCCC(=O)Nc1nc2ccc(NC(=O)C3(c4ccccc4)CCCC3)cc2s1,56
O=C(NCCc1csc(-c2ccccc2)n1)[C@H]1CCCN1C(=O)c1ccco1,53
CN(Cc1cnccn1)C(=O)c1ccc(CSc2ncccn2)o1,99
CCCc1nc(Cn2ncc(Br)c(Br)c2=O)no1,100
CC1=C(O)C(=O)C=C2C1=CC=C1[C@@]2(C)CC[C@@]2(C)[C@@H]3C[C@](C)(C(=O)O)CC[C@]3(C)CC[C@]12C,100
CCN(c1ccc2sc(C(=O)Nc3cccc(OC)c3)cc2c1)S(C)(=O)=O,53
COC[C@@H]1CN(C(=O)c2ccc3[nH]ccc3c2)C[C@H]1c1nc(C)no1,84
O=c1c(Cl)c(Cl)cnn1Cc1ccc(F)cc1Br,65
O=c1c(Cl)c(Cl)cnn1Cn1nnc2ccccc2c1=O,89
Cc1cc(C(=O)NC2CC(=O)N(Cc3ccccc3Cl)C2)nc(C)n1 (stereo not shown),71

# Further values, each from its own experiment
# rep nsp12 RdRp: Replicase polyprotein 1ab, nsp12 RdRp (rep, Severe acute respiratory syndrome coronavirus 2, UniProt P0DTD1)
# rep nsp14: Replicase polyprotein 1ab, nsp14 (rep, Severe acute respiratory syndrome coronavirus 2, UniProt P0DTD1)
# rep papain-like protease: Replicase polyprotein 1ab, papain-like protease (rep, Severe acute respiratory syndrome coronavirus 2, UniProt P0DTD1)
# Matrix protein 2 S31N: Matrix protein 2 (Influenza A virus, UniProt P0DOF5, S31N)
Substance,target or system,assay,system,setting,scale,endpoint,result
COc1nc(N)nc2c1ncn2[C@@H]1O[C@H](CO)[C@@H](O)[C@@H]1O,SARS-CoV-2,cytopathic effect,"Vero C1008, Omicron BA.1",48 h,,IC100,4.12 ± 0.15 µM
COc1ccc([C@@H]2CC(=O)c3c(O)cc(O[C@@H]4O[C@H](CO[C@@H]5O[C@@H](C)[C@H](O)[C@@H](O)[C@H]5O)[C@@H](O)[C@H](O)[C@H]4O)cc3O2)cc1O,rep nsp12 RdRp,"binding, biolayer interferometry",,concentration not given,,BLI response,0.01 nm
SLVAVTAAQSTIEHQAKTFLDKFN,SARS-CoV-2 spike RBD,peptide spot array,peptide,concentration not given,relative to: wild-type ACE2 peptide,relative binding,3.27
NCC[C@H](O)C(=O)N[C@@H]1C[C@H](N)[C@@H](O[C@H]2O[C@H](CN)[C@@H](O)[C@H](O)[C@H]2O)[C@H](O)[C@H]1O[C@H]1O[C@H](CO)[C@@H](O)[C@H](N)[C@H]1O,Mycobacterium tuberculosis,,H37Rv mc2-6206 MmpL3 L567P,,,MIC80,0.85 µM
CCC(CC)COC(=O)[C@H](C)N[P@](=O)(OC[C@H]1O[C@@](C#N)(c2ccc3c(N)ncnn23)[C@H](O)[C@@H]1O)Oc1ccccc1,SARS-CoV-2,viral replication,"Calu-3, Alpha",,,EC50,0.9 ± 1.2 µM
Nc1nc2c(ncn2[C@@H]2O[C@H](COP(=O)(O)OP(=O)(O)OP(=O)(O)OC[C@H]3O[C@@H](n4cnc5c(=O)[nH]c(N)nc54)[C@H](O)[C@@H]3O)[C@@H](O)[C@H]2O)c(=O)[nH]1,rep nsp14,thermal shift,,20 µM,,ΔTm,0.3 °C
CC(C)C(=O)OC[C@H]1O[C@@H](n2ccc(NO)nc2=O)[C@H](O)[C@@H]1O,SARS-CoV-2,viral replication,"Vero C1008, Omicron BA.1","48 h, reduction of infectious virus",,EC90,9.16 ± 0.37 µM
O=C(NC1CCN(c2ncnc3[nH]cnc23)CC1)c1cccc(NS(=O)(=O)c2ccccc2)c1,rep nsp14,enzyme activity,SARS-CoV-2,concentration not given,,inhibition,23.2%
CCc1cc(=O)c2c(OCC(O)CN(CC)CC)c3ccoc3c(OC)c2o1 (stereo not shown),Mycobacterium tuberculosis,Alamar blue,"22/22, SIRE and linezolid resistant","21 days, 37 °C",,MIC,32 mg/L
SLVAVTAAQSTIEEQAKTFLDKKN,SARS-CoV-2 spike RBD,peptide spot array,peptide,concentration not given,relative to: wild-type ACE2 peptide,relative binding,3.28
Cl.N[C@@H](Cc1ccccc1)C(=O)N1C/C(=C/c2ccc(Cl)c(Cl)c2)C(=O)/C(=C\c2ccc(Cl)c(Cl)c2)C1,rep papain-like protease,,,"concentration not given, C111S mutant",relative to: positive control,activity,27.8%
CCC(CC)[C@H](NC(C)=O)[C@@H]1[C@H](O)[C@@H](C(=O)O)C[C@H]1N=C(N)N,"neuraminidase (Influenza B virus, UniProt A0A1S5RAG6, I221L)",,,,,IC50,0.0206 ± 0.003 µM
CC(C)(C)[C@H](NC(=O)C(F)(F)F)C(=O)N1C[C@H]2[C@@H]([C@H]1C(=O)N[C@H](C#N)C[C@@H]1CCNC1=O)C2(C)C,SARS-CoV-2,"viral replication, replicon",S4145N Mpro cleavage-site mutant,,,EC50,0.005 µM
C1C2C1C1C3C4C5C6CC6C4C14CNCC54C23.Cl (stereo not shown),Matrix protein 2 S31N,,,"concentration not given, pH 5.5, cell-based",,inhibition,0%
CC[C@@H](CO)NCCN[C@@H](CC)CO,Mycobacterium tuberculosis,Alamar blue,"22/22, SIRE and linezolid resistant","21 days, 37 °C",,MIC,4 mg/L
COC(=O)C=Cc1ccccc1,rep papain-like protease,,,"concentration not given, C111S mutant",relative to: positive control,activity,18.3%
CS(=O)(=O)N1CCN(Cc2cc3nc(-c4cccc5[nH]ncc45)nc(N4CCOCC4)c3s2)CC1,rep nsp12 RdRp,"binding, biolayer interferometry",,50 µM,,BLI response,0.03 nm
N#C[C@@]1(n2ccc(N)nc2=O)O[C@H](CO)[C@@H](O)[C@H]1O,SARS-CoV-2,viral replication,"Calu-3, Beta",,,EC90,2 ± 2.3 µM
CCCCCCC#Cc1cncc(-c2nnc(SCc3ccc(Cl)cc3)n2C)c1,Mycobacterium tuberculosis,MABA,Erdman M3 FbiC P367S mutant,,,IC50,4.6 µM
CNCC12C3CCC4C3C3C(CCC31)C42.Cl,Matrix protein 2 S31N,,,"concentration not given, pH 5.5, cell-based",,inhibition,0%

# Excerpt of the above (further values, each from its own experiment):
Substance,target or system,assay,system,setting,scale,endpoint,result
Nc1nc2c(ncn2[C@@H]2O[C@H](COP(=O)(O)OP(=O)(O)OP(=O)(O)OC[C@H]3O[C@@H](n4cnc5c(=O)[nH]c(N)nc54)[C@H](O)[C@@H]3O)[C@@H](O)[C@H]2O)c(=O)[nH]1,rep nsp14,thermal shift,,20 µM,,ΔTm,0.3 °C
CC(C)C(=O)OC[C@H]1O[C@@H](n2ccc(NO)nc2=O)[C@H](O)[C@@H]1O,SARS-CoV-2,viral replication,"Vero C1008, Omicron BA.1","48 h, reduction of infectious virus",,EC90,9.16 ± 0.37 µM
O=C(NC1CCN(c2ncnc3[nH]cnc23)CC1)c1cccc(NS(=O)(=O)c2ccccc2)c1,rep nsp14,enzyme activity,SARS-CoV-2,concentration not given,,inhibition,23.2%
